Assay results gathered from unrelated publications.
Each numbered part is a random draw from the data of one study; scales do not carry over between parts.
Sequence of UniProt O94804 (whole entry, looked up): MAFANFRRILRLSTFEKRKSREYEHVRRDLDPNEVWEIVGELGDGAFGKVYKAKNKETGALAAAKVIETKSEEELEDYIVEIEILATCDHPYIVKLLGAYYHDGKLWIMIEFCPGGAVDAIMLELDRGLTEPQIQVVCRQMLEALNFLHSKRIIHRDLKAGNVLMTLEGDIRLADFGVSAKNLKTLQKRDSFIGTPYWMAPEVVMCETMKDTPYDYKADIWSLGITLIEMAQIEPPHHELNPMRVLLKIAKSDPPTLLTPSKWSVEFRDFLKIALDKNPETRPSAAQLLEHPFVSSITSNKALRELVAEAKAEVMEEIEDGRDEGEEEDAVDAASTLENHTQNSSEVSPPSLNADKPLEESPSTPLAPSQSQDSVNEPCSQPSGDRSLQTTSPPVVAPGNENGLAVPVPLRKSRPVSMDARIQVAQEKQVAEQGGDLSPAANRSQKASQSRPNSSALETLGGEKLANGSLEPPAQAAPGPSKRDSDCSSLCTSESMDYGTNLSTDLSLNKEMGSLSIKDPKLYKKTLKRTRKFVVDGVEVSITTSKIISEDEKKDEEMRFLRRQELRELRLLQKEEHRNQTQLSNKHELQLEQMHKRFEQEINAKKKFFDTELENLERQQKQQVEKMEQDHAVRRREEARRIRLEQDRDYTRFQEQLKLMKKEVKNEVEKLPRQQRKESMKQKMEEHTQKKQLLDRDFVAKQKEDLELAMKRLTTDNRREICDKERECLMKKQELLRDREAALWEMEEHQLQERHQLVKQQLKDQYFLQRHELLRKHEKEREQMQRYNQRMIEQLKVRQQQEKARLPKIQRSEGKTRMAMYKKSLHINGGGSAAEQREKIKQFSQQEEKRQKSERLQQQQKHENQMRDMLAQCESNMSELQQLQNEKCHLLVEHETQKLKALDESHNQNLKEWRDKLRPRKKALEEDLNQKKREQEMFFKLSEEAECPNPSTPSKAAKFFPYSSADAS
Sequence of UniProt Q9BYT3 (whole entry, looked up): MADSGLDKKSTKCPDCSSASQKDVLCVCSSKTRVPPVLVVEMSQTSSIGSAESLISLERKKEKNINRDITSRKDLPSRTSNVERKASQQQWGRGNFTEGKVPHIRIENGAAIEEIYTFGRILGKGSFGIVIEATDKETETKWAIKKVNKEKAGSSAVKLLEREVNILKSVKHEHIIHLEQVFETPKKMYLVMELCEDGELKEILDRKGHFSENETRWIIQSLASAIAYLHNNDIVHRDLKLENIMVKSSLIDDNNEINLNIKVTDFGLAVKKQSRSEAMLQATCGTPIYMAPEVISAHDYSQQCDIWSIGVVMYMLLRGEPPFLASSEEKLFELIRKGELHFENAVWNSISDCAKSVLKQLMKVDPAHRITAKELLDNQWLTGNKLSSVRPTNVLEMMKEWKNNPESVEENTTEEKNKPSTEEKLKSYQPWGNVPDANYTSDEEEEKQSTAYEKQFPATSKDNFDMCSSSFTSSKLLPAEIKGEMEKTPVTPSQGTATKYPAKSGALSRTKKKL
Sequence of UniProt P10721 (whole entry, unmodified, looked up): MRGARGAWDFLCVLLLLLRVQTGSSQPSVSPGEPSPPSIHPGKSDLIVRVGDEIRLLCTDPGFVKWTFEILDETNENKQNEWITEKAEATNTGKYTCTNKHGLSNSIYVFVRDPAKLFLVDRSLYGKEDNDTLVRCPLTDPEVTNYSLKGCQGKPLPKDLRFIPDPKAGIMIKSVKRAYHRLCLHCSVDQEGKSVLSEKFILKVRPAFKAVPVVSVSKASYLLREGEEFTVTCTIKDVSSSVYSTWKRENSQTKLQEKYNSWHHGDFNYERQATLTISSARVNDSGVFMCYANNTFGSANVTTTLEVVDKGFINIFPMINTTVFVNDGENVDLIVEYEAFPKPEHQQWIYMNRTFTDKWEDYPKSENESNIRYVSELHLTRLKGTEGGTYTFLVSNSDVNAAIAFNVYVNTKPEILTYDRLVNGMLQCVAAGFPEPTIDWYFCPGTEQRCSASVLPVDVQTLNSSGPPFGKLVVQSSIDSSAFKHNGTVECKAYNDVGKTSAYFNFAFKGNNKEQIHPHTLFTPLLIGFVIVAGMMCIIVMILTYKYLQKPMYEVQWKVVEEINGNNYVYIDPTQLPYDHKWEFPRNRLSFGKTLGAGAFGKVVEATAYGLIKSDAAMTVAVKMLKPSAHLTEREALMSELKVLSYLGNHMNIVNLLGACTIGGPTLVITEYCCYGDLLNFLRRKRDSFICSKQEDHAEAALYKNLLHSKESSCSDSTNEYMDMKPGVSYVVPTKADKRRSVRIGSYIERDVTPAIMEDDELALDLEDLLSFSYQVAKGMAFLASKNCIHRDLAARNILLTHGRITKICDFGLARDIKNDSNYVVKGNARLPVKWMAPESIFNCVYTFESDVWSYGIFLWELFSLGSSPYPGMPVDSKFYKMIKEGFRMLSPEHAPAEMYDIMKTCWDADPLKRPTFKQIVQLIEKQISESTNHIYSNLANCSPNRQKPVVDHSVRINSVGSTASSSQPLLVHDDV
Sequence of UniProt P07948 (whole entry, looked up): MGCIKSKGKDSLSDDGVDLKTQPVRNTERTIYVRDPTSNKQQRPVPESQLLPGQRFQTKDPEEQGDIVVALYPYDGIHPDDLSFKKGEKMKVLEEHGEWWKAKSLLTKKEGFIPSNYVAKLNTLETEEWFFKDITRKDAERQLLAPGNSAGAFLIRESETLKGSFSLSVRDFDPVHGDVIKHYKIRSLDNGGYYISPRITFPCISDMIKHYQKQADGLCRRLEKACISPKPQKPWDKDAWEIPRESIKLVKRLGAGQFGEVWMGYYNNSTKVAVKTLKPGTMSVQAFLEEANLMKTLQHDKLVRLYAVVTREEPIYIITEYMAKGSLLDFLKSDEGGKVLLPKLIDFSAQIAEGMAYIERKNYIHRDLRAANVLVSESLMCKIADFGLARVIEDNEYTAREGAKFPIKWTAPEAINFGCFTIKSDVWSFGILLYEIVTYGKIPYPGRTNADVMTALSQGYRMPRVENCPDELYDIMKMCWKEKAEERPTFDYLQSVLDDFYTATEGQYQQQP
Sequence of UniProt P11802 (whole entry, looked up): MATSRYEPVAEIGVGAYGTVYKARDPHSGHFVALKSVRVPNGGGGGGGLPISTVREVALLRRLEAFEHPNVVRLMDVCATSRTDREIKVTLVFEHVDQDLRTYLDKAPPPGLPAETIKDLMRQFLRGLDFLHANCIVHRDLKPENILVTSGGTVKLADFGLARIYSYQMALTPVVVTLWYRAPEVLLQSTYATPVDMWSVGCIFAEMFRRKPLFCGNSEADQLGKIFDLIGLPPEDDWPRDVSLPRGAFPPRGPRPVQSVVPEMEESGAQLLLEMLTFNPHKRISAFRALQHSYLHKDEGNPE
Sequence of UniProt P53671 (whole entry, looked up): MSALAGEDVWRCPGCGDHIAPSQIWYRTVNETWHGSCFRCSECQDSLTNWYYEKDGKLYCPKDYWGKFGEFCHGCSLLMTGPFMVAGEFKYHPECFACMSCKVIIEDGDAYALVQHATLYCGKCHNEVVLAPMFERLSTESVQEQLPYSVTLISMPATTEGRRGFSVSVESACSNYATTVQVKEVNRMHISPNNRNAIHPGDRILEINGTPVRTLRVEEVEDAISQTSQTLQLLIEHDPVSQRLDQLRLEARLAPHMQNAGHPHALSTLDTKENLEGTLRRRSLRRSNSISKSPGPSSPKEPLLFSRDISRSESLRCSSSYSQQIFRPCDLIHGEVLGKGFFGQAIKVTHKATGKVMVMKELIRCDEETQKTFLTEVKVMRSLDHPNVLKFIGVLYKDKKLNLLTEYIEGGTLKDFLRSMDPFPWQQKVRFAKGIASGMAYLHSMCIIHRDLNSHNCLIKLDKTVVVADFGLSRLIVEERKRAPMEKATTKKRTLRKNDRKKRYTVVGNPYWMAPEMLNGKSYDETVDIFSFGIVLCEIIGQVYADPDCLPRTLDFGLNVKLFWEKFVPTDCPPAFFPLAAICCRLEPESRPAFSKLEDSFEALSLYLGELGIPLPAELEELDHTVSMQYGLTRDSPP
Sequence of UniProt P35626 (whole entry, looked up): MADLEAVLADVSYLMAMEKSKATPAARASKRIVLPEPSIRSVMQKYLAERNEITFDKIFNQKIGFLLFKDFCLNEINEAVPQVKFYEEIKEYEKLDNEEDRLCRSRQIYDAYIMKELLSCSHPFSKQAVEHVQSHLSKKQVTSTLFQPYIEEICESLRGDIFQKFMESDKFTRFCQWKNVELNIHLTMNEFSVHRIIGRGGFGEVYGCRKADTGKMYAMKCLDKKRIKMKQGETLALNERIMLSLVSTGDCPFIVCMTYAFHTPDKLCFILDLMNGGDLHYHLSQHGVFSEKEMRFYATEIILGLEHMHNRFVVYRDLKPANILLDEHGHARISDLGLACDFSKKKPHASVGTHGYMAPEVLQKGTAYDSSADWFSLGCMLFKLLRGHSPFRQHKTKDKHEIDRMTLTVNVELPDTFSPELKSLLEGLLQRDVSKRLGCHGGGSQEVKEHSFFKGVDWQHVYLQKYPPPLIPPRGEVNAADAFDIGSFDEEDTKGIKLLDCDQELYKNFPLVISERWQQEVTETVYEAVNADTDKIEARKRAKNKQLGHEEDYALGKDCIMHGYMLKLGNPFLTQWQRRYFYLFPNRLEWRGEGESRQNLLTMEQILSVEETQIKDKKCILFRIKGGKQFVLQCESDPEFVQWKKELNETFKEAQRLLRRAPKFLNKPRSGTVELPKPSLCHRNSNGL
Sequence of UniProt Q15831 (whole entry, looked up): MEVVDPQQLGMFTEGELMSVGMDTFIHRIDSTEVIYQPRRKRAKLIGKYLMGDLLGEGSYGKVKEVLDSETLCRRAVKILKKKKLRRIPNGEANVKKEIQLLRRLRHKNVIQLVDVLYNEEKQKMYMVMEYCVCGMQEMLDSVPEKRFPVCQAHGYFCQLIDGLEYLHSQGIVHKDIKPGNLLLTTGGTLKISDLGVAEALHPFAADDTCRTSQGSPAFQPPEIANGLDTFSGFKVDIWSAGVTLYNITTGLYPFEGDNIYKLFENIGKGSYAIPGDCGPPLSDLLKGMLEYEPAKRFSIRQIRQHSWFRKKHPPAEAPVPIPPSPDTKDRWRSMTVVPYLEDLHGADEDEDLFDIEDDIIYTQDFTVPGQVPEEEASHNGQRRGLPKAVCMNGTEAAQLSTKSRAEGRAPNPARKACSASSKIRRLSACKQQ

Sample 1
Host: mouse
Medium: microsomes or S9
Concentration: 2 µM
Time: 0.5 h
Compound | remaining compound [%]
Nc1cc(S(=O)(=O)c2ccc(Nc3ccccc3)c(N)c2)ccc1Nc1ccccc1 | 47.8
O=C(NCc1cccc(F)c1)c1c(OCC2CC2)cc(=O)n2c1CCCCC2 | 15.4
C[C@@H](c1ccccc1)N1C(=O)OC[C@H]1CN1CCCC1CO (some centres unmarked) | 36.5
Cc1cc(C(=O)Nc2nnc3n2CCCC3)n(C)n1 | 70.9
c1ccc(N(c2ccccc2)c2nc(N3CCOCC3)nc(N3CCOCC3)n2)cc1 | < 1

Sample 2
SMILES: C[C@H](c1ccnc(Nc2nc3ccc(-c4cc(N(C)C)ncn4)cc3[nH]2)c1)N1CCN(C(=O)CC(F)(F)F)CC1
Concentration: 0.1 µM
target | observed | technique | remaining binding [%]
Ribosomal protein S6 kinase alpha-6, N-terminal kinase domain (RPS6KA6, Homo sapiens, UniProt Q9UK32) | cell-free assay | competition with immobilised ligand | 97
LRRK2 (Homo sapiens, UniProt Q5S007, G2019S) | cell-free assay | competition with immobilised ligand | 100
PTK6 (Homo sapiens, UniProt Q13882) | cell-free assay | competition with immobilised ligand | 85
AAK1 (Homo sapiens, UniProt Q2M2I8) | binding |  | 60
KIT (Homo sapiens, UniProt P10721, V559D) | cell-free assay | competition with immobilised ligand | 99
CHUK (Homo sapiens, UniProt O15111) | cell-free assay | competition with immobilised ligand | 95
ALK (Homo sapiens, UniProt Q9UM73, C1156Y) | cell-free assay | competition with immobilised ligand | 100
LATS1 (Homo sapiens, UniProt O95835) | cell-free assay | competition with immobilised ligand | 100
LIM domain kinase 2 (LIMK2, Homo sapiens, UniProt P53671) | cell-free assay | competition with immobilised ligand | 88
STK33 (Homo sapiens, UniProt Q9BYT3) | cell-free assay | competition with immobilised ligand | 100
CDK11A (Homo sapiens, UniProt Q9UQ88) | binding | competition with immobilised ligand | 84
CDC42BPA (Homo sapiens, UniProt Q5VT25) | cell-free assay | competition with immobilised ligand | 99
EPHB1 (Homo sapiens, UniProt P54762) | cell-free assay | competition with immobilised ligand | 98
FLT3 (Homo sapiens, UniProt P36888, R834Q) | cell-free assay | competition with immobilised ligand | 100
MYLK4 (Homo sapiens, UniProt Q86YV6) | cell-free assay | competition with immobilised ligand | 100

Sample 3
SMILES: CC(C)(C)n1nc(Cc2cccc3ccccc23)c2c(N)ncnc21
Observed: enzyme activity
Action: inhibitor
Concentration: 0.5 µM
Reference: control
target | remaining activity [%]
TGFBR2 (Homo sapiens, UniProt P37173) | 108
Protein kinase C beta type, isoform beta-I (PRKCB, Homo sapiens, UniProt P05771) | 89.8
Cyclin-dependent kinase 4, with cyclin D1 (CDK4, Homo sapiens, UniProt P11802) | 96.7
OXSR1 (Homo sapiens, UniProt O95747) | 94.7
STK10 (Homo sapiens, UniProt O94804) | 81.1
TGFBR1 (Homo sapiens, UniProt P36897) | 102
MAP3K3 (Homo sapiens, UniProt Q99759) | 98.8
DAPK1 (Homo sapiens, UniProt P53355) | 87.3
STK39 (Homo sapiens, UniProt Q9UEW8) | 100
MAPK9 (Homo sapiens, UniProt P45984) | 80.3
IKBKB (Homo sapiens, UniProt O14920) | 97.3
DAPK2 (Homo sapiens, UniProt Q9UIK4) | 101
Tyrosine-protein kinase Lyn, isoform B (LYN, Homo sapiens, UniProt P07948) | 74.8
CAMKK2 (Homo sapiens, UniProt Q96RR4) | 82.4
GRK3 (Homo sapiens, UniProt P35626) | 101
NEK2 (Homo sapiens, UniProt P51955) | 98.4
PRKACA (Homo sapiens, UniProt P17612) | 54.3
STK11 (Homo sapiens, UniProt Q15831) | 53.4

Sample 4
Cell line: HaCaT
Concentration: 100 µM
Time: 36 h
SMILES | viability [%]
O=C(Nc1cccc2c(=O)cc(-c3nnn[nH]3)oc12)c1ccc(OCCCCc2ccccc2)cc1 | 18
COc1ccc(-c2cc(=O)c3c(O)cc(O[C@@H]4O[C@H](CO[C@@H]5O[C@@H](C)[C@H](O)[C@@H](O)[C@H]5O)[C@@H](O)[C@H](O)[C@H]4O)cc3o2)cc1O | 97.3
O=C(C[S+]([O-])Cc1ccco1)NC/C=C\COc1cc(CN2CCCCC2)ccn1 (centres unmarked) | 100
CC(=O)O[C@H]1C[C@@]2(C)[C@@H](C[C@@H](O)[C@H]3[C@@]4(C)CC[C@@H](O)[C@@H](C)[C@@H]4CC[C@@]32C)/C1=C(\CCC=C(C)C)C(=O)O | 90.8
C[N+](C)(C)CCO | 92.1
CCCCCCNC(=O)n1cc(F)c(=O)[nH]c1=O | 42.8

A few entries again (sample 3):
target | remaining activity [%]
NEK2 (Homo sapiens, UniProt P51955) | 98.4
TGFBR1 (Homo sapiens, UniProt P36897) | 102
